Experimental data from different studies.
Every numbered part comes from another study and shows a few of its results, in no order.
Sequence of UniProt P78356 (whole entry, looked up): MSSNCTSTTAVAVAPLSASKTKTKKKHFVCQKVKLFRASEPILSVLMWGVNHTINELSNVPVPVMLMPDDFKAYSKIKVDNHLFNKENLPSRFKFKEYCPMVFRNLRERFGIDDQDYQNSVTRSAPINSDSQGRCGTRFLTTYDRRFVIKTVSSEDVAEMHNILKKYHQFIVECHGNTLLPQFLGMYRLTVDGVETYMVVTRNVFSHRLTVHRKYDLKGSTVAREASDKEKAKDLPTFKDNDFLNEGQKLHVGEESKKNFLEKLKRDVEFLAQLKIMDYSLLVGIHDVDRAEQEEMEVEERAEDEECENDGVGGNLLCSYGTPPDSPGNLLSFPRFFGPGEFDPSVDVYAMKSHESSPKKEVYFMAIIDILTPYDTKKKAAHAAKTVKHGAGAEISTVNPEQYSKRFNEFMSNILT
Sequence of UniProt P42679 (whole entry, looked up): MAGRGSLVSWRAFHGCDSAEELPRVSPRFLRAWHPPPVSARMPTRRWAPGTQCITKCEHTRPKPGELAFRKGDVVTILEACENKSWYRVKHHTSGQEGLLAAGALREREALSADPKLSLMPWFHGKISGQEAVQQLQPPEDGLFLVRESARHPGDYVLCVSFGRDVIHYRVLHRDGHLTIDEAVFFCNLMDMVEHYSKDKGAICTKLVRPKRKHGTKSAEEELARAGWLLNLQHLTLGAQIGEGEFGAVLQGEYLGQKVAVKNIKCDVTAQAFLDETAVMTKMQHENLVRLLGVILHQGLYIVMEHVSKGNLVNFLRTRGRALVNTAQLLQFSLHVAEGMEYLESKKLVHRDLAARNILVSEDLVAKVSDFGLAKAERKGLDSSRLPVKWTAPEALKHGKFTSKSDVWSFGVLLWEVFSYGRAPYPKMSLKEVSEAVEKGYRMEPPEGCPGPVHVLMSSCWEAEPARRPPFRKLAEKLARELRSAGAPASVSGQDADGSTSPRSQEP
Sequence of UniProt P35916 (whole entry, looked up): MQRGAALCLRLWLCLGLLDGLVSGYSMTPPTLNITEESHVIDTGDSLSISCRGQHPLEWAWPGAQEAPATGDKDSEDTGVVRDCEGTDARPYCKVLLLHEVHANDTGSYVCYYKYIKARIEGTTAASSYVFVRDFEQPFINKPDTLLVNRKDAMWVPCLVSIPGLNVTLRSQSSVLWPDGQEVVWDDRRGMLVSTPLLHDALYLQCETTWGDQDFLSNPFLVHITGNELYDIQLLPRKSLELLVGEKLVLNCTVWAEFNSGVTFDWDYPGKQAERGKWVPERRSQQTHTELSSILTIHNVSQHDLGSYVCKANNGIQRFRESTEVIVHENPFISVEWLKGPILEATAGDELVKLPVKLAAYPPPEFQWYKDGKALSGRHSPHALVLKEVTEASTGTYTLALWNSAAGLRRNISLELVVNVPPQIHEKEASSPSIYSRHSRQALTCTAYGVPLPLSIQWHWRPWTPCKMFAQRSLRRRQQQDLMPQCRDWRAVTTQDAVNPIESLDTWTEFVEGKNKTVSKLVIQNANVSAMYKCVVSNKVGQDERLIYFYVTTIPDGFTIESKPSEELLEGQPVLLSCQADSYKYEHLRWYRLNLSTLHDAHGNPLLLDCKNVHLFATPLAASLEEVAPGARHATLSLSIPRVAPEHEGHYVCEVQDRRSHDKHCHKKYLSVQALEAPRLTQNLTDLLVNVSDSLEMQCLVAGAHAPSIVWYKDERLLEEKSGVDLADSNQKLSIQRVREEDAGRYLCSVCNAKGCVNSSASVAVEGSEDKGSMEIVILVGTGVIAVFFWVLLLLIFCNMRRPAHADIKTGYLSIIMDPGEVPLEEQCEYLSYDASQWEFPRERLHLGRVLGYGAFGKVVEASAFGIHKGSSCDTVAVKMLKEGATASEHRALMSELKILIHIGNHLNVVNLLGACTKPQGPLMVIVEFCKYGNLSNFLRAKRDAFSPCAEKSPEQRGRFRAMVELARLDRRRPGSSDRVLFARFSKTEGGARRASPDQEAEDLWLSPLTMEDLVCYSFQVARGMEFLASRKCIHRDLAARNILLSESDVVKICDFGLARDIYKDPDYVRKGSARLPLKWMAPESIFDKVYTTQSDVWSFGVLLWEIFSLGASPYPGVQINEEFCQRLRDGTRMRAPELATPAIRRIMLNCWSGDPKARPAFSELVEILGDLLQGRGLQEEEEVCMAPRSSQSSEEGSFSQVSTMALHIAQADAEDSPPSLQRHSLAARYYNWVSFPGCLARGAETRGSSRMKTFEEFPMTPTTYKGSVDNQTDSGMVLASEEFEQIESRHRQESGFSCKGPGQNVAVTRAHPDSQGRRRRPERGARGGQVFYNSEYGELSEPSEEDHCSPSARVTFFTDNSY
Sequence of UniProt O14976 (whole entry, looked up): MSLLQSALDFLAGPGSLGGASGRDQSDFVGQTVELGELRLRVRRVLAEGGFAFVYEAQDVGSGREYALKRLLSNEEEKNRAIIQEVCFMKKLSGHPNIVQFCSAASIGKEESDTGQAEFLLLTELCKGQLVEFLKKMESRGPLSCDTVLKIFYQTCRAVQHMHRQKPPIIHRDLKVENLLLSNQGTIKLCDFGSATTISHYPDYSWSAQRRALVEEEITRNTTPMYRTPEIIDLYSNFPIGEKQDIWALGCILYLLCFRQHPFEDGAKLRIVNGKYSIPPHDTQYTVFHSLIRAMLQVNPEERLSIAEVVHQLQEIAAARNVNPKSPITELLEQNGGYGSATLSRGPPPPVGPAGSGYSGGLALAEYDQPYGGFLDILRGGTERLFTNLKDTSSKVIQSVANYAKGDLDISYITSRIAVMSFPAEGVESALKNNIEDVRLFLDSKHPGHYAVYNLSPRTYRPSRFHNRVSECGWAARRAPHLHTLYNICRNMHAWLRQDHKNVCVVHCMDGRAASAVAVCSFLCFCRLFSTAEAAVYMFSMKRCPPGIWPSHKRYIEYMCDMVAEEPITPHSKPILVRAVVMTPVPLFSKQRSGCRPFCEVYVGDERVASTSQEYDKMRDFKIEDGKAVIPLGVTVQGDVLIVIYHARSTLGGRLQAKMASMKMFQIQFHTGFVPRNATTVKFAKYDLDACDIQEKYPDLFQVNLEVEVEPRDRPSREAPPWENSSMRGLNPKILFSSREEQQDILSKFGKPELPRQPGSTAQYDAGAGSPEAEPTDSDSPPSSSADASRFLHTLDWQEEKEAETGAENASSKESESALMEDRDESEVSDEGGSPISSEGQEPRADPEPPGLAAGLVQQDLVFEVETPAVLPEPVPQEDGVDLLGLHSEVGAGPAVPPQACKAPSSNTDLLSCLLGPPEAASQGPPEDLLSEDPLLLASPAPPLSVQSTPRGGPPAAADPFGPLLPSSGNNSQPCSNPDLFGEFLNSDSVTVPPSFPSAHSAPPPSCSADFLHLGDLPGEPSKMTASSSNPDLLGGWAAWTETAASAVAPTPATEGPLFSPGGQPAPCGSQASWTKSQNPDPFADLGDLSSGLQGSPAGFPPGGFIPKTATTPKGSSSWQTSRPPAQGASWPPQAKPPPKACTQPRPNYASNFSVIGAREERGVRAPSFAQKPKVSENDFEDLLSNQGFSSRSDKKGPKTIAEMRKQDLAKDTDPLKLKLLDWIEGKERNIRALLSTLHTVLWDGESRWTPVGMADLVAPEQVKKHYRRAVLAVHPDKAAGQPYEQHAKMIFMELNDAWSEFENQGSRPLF
Sequence of UniProt P27361 (whole entry, looked up): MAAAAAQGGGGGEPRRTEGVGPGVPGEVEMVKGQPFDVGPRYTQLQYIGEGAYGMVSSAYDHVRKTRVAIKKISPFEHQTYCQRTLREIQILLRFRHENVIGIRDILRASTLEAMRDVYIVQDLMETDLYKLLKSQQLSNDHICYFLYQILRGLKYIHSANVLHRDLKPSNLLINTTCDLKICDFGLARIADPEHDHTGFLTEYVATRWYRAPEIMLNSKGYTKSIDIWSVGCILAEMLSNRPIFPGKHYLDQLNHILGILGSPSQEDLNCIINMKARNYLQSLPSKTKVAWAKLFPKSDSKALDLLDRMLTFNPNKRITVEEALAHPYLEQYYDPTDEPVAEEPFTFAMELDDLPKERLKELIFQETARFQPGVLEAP

Study 1 — method: protein-binding microarray; molecule type: double-stranded DNA, one strand shown; matrix: in vitro; tested at: 2540 nM top; notes: 60-bp whole probe; together with: salmon DNA 0.4 mg/ml; reference: random background probes; reading: higher = stronger binding; constant ends, left off below: GCCTAGCAC … GTCTTGATTCGCTTGACGCTGCTG
Target: Interferon regulatory factor 3, full length, phosphomimetic (IRF3, Homo sapiens, UniProt Q14653, residues 1-427, S386D/S396D/S398D/S402D/T404D/S405D)
Construct (chain): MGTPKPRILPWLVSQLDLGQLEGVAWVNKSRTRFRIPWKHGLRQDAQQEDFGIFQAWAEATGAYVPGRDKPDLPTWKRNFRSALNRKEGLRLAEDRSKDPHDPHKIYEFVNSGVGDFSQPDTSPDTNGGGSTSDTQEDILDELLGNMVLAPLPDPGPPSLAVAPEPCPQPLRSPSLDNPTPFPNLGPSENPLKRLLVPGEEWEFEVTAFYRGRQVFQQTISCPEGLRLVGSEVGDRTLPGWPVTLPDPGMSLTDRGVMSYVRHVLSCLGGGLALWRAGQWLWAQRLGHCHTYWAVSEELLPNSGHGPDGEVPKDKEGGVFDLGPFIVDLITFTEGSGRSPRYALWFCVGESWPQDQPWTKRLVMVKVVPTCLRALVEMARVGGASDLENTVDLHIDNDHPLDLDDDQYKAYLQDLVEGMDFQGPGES
Sequence | fitted relative affinity
GACTGTTTCGACACTGGGGACGTGCTA | 2.62 z-score
ATTTTTTTCTAAGTAAACCCGTGCTAG | 1.08 z-score
TCAACTTCCCAATTGTCACTGTGCTAG | 1.54 z-score
TTAGGACCGGGTTTCGGTTAGTGCTAG | 2.92 z-score
TCCTCTCTGCCACTCAGGTAGTGCTAG | 0.713 z-score
GACGATGTCAGTATCGAGACGTGCTAG | 0.45 z-score
GACGGTTTCGGTTTTGGGACGTGCTAG | 9.42 z-score
TCAGAACTGAGACTGGATTAGTGCTAG | 0.121 z-score

Study 2 — cell line: Huh-7; tested at: 10 µM; time: 24 h
SMILES | viability
NS(=O)(=O)c1cc2c(cc1Cl)N=CNS2(=O)=O | 104%
NCCc1c[nH]cn1 | 102%
CCOC(=O)c1ccc(N)cc1 | 104%

Study 3 — SMILES: CCC(=N\O)/C(C)=C/c1ccc(F)cc1; tested at: 1 µM
target | test | remaining binding [%]
Cyclin-G-associated kinase (GAK, Homo sapiens, UniProt O14976) | cell-free assay, competition with immobilised ligand | 99
Serine/threonine-protein kinase ICK (CILK1, Homo sapiens, UniProt Q9UPZ9) | cell-free assay, competition with immobilised ligand | 100
Interleukin-1 receptor-associated kinase 3 (IRAK3, Homo sapiens, UniProt Q9Y616) | cell-free assay, competition with immobilised ligand | 100
Phosphatidylinositol 5-phosphate 4-kinase type-2 beta (PIP4K2B, Homo sapiens, UniProt P78356) | cell-free assay, competition with immobilised ligand | 91
Mitogen-activated protein kinase 3 (MAPK3, Homo sapiens, UniProt P27361) | cell-free assay, competition with immobilised ligand | 69
Serine/threonine-protein kinase LATS1 (LATS1, Homo sapiens, UniProt O95835) | cell-free assay, competition with immobilised ligand | 100
Cyclin-dependent kinase 4 (CDK4, Homo sapiens, UniProt P11802) | cell-free assay, competition with immobilised ligand | 100
Casein kinase II subunit alpha (CSNK2A1, Homo sapiens, UniProt P68400) | cell-free assay, competition with immobilised ligand | 74
Serine/threonine-protein kinase SIK1 (SIK1, Homo sapiens, UniProt P57059) | competition binding | 80
Cyclin-dependent kinase 5 (CDK5, Homo sapiens, UniProt Q00535) | cell-free assay, competition with immobilised ligand | 68
Vascular endothelial growth factor receptor 3 (FLT4, Homo sapiens, UniProt P35916) | cell-free assay, competition with immobilised ligand | 100
Angiopoietin-1 receptor (TEK, Homo sapiens, UniProt Q02763) | cell-free assay, competition with immobilised ligand | 89
Protein-tyrosine kinase 2-beta (PTK2B, Homo sapiens, UniProt Q14289) | cell-free assay, competition with immobilised ligand | 99
Megakaryocyte-associated tyrosine-protein kinase (MATK, Homo sapiens, UniProt P42679) | cell-free assay, competition with immobilised ligand | 72
Activin receptor type-2B (ACVR2B, Homo sapiens, UniProt Q13705) | cell-free assay, competition with immobilised ligand | 91
Tyrosine-protein kinase Lyn (LYN, Homo sapiens, UniProt P07948) | cell-free assay, competition with immobilised ligand | 87
Ribosomal protein S6 kinase alpha-5, C-terminal kinase domain (RPS6KA5, Homo sapiens, UniProt O75582) | cell-free assay, competition with immobilised ligand | 100
Phosphatidylinositol 4,5-bisphosphate 3-kinase catalytic subunit alpha isoform (PIK3CA, Homo sapiens, UniProt P42336, E545K) | cell-free assay, competition with immobilised ligand | 100
Calcium/calmodulin-dependent protein kinase type IV (CAMK4, Homo sapiens, UniProt Q16566) | cell-free assay, competition with immobilised ligand | 69
Mitogen-activated protein kinase 6 (MAPK6, Homo sapiens, UniProt Q16659) | cell-free assay, competition with immobilised ligand | 73
Phosphatidylinositol 3-kinase catalytic subunit type 3 (PIK3C3, Homo sapiens, UniProt Q8NEB9) | cell-free assay, competition with immobilised ligand | 83
ALK tyrosine kinase receptor (ALK, Homo sapiens, UniProt Q9UM73) | cell-free assay, competition with immobilised ligand | 87
Wee1-like protein kinase 2 (WEE2, Homo sapiens, UniProt P0C1S8) | cell-free assay, competition with immobilised ligand | 83
Casein kinase I isoform gamma-1 (CSNK1G1, Homo sapiens, UniProt Q9HCP0) | cell-free assay, competition with immobilised ligand | 99
Tyrosine-protein kinase Mer (MERTK, Homo sapiens, UniProt Q12866) | cell-free assay, competition with immobilised ligand | 100

Study 4 — cell line: A-375; tested at: 100 µM; time: 36 h
SMILES | viability [%]
Nc1nc2c(ncn2COCCO)c(=O)[nH]1 | 103
N#CC1(c2ccc(NC(=O)c3cccnc3NCc3ccncc3)cc2)CCCC1 | 50.2
CC(C)[C@H](NC(=O)[C@H](CC(=O)O)NC(=O)[C@H](CCCCN)NC(=O)[C@@H](N)CCCN=C(N)N)C(=O)N[C@@H](Cc1ccc(O)cc1)C(=O)O | 106

Study 5 — effect on: AlphaScreen signal; method: AlphaScreen counter screen; matrix: His6 peptide without bromodomain; tested at: 50 µM; notes: assay interference check
Structure (SMILES) | inhibition [%]
CCN(CCO)CCCOc1ccc2c(Nc3cc(CC(=O)Nc4cccc(F)c4)[nH]n3)ncnc2c1 | 36.8
Cc1nc(N)sc1-c1csc(Nc2ccc(Cl)cc2)n1 | 80.5
NC(=O)c1ccc(-c2nc(-c3ccc4c(c3)OCO4)c(-c3ccccn3)[nH]2)cc1 | 32.5

Study 6 — cell line: mouse MPNST tumor cells; method: high-content nuclear imaging; refers to: cell number; tested at: 10 µM; time: 12 h; notes: mean of 2 replicates; reference: plate mean; reading: higher = more cells
Compound | nuclei count [z-score]
CC1=C(C)C(=O)C(C(C)(C)CC(=O)N(CCCCSC[C@H]2O[C@@H](n3cnc4c(N)ncnc43)[C@H](O)[C@@H]2O)Cc2cccc(-c3ccc(Cl)cc3)c2)=C(C)C1=O | 1.1
O=C(O)Cc1ccc(-c2ccccc2)cc1 | 1.46
CC(=O)NCC(=O)N1[C@@H]2CC[C@H]1c1ccc(Nc3ncc(C(F)(F)F)c(NC4CCC4)n3)cc12 | -1.92

Study 7 — method: universal PBM; molecule type: double-stranded DNA, one strand shown; matrix: in vitro; tested at: 600 nM; reading: higher = stronger binding
Target: Sal-like protein 4, full length isoform A (SALL4, Homo sapiens, UniProt Q9UJQ4, residues 1-1053)
Sequence of UniProt Q9UJQ4 (whole entry, looked up): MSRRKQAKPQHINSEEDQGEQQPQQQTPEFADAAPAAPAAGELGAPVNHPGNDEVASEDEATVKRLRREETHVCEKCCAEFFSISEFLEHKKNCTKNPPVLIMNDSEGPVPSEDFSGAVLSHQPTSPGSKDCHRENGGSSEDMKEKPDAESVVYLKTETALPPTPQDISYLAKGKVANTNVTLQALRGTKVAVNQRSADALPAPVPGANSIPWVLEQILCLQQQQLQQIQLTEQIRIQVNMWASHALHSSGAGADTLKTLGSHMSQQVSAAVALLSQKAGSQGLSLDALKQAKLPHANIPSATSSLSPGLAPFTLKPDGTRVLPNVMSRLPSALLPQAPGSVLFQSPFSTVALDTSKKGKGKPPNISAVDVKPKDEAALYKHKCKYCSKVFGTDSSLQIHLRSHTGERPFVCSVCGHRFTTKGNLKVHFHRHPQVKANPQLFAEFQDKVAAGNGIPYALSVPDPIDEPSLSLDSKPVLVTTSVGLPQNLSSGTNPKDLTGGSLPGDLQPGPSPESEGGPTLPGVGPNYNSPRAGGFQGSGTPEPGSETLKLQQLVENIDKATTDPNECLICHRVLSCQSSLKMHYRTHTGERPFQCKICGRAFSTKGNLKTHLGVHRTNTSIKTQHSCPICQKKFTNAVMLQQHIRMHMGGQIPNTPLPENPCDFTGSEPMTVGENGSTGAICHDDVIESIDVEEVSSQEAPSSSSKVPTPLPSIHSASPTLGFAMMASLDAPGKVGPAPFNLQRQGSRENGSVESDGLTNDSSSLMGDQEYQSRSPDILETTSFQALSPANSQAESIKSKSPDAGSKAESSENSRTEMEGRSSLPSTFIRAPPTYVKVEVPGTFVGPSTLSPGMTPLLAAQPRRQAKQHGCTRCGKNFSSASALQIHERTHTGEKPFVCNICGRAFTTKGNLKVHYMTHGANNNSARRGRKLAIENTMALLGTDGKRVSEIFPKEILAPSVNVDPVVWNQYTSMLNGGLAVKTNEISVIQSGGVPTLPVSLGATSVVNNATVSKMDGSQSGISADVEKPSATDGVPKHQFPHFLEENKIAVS
Notes: 8-mer, flanks averaged, mean of replicates
Sequence | E-score
CGGAGGGC | -0.284
TCGACCAA | -0.0478
CCTGAAGG | -0.151
CTCGTGAA | 0.0888
ATCGTTAG | 0.118
CTCTAAAA | 0.118
CAGTCAGA | -0.0431
ATCCATCG | -0.0471

Mixed results
Molecule | target | test | system | setting | how to read | endpoint | value
PhoQ, residues 284 288 289 292 302 303 AANNSF | PhoP, residues 12 14 15 18 19 LHSVW (Escherichia coli, UniProt P23836) | Sort-seq, refers to: YFP reporter | E. coli | PhoQ-PhoP variant library, together with: 10 µM Mg2+ | reference: high Mg2+ state, higher = stronger signaling | fold induction | 8.37

A few entries again (study 5):
Structure (SMILES) | inhibition [%]
CCN(CCO)CCCOc1ccc2c(Nc3cc(CC(=O)Nc4cccc(F)c4)[nH]n3)ncnc2c1 | 36.8
Cc1nc(N)sc1-c1csc(Nc2ccc(Cl)cc2)n1 | 80.5
NC(=O)c1ccc(-c2nc(-c3ccc4c(c3)OCO4)c(-c3ccccn3)[nH]2)cc1 | 32.5
